Measured values of several laboratories.
Protocols differ between the studies behind these lines. ± marks the error that the study gave.

SMILES | organism | assay | system | setting | MIC
CC(C)C[C@@H]1NC(=O)[C@H](C)NC(=O)[C@H](NC(=O)[C@H](C)NC(=O)[C@@H](CCCCN)NC(=O)[C@@H](CC(C)C)NC(=O)[C@@H](N)Cc2ccccc2)[C@H](C(N)=O)OC(=O)[C@H](CC(C)C)NC1=O | Bacillus subtilis Staphylococcus epidermidis |  | ATCC 14990 | tested as TFA salt | 4 to 8 µg/mL
O=[N+]([O-])c1ccc(C2=[N+]([O-])c3ccccc3N3CCCN=C23)cc1 | Prevotella intermedia/nigrescens |  | ATCC 25611 |  | ≤ 0.06 µg/mL
CC[C@H](C)[C@H](NC(=O)[C@H](CCCN)NC(=O)[C@H](CC(N)=O)NC(=O)[C@H](CC(C)C)NC(=O)[C@H](Cc1ccccc1)NC(=O)[C@H](CCCN)NC(=O)[C@H](CCCNC(=N)N)NC(=O)[C@H](CC(C)C)NC(=O)[C@H](CC(C)C)NC(=O)[C@H](CCCN)NC(=O)[C@H](CCCNC(=N)N)NC(=O)[C@H](CC(C)C)NC(=O)CNC(C)=O)C(=O)N[C@@H](CCCN)C(=O)N[C@@H](CCCNC(=N)N)C(N)=O | Enterobacter aerogenes | broth microdilution | multidrug-resistant |  | 25 µM
CC[C@H](C)[C@H](NC(=O)[C@H](CO)NC(=O)[C@H](CO)NC(=O)[C@H](Cc1ccccc1)NC(=O)CN)C(=O)N[C@@H](Cc1ccccc1)C(=O)N[C@@H](CCCNC(=N)N)C(N)=O | Escherichia coli |  | ATCC 8739 | added: 150 mM NaCl | > 128 µM
O=C1CC(c2ccc(O)cc2)Oc2cc(O)cc([O][Ga+][O]c3cc(O)cc4c3C(=O)CC(c3ccc(O)cc3)O4)c21 (stereo not drawn) | Pseudomonas aeruginosa |  | PAO1 |  | ~0.5 µg/mL
CN[C@@H]1[C@H](O)[C@H](NC)[C@H]2O[C@]3(O)[C@H](O[C@@H]2[C@H]1O)O[C@H](C)C[C@@]3(O)CNCc1ccccc1 | Streptococcus pneumoniae |  | OVA2 drug resistant |  | 6 µg/mL
CC[C@H](C)[C@H](NC(=O)[C@H](C)NC(=O)CNC(=O)[C@@H](N)CCSC)C(=O)N[C@@H](C)C(=O)N[C@@H](CCCCN)C(=O)N[C@@H](CC(C)C)C(=O)N[C@H](C(=O)N[C@@H](C)C(=O)N[C@@H](CCCCN)C(=O)N[C@@H](Cc1ccccc1)C(=O)NCC(=O)N[C@@H](Cc1c[nH]c2ccccc12)C(=O)N1CCC[C@H]1C(=O)N[C@@H](CCCNC(=N)N)C(=O)N[C@H](C(=O)N[C@@H](CCCCN)C(=O)N[C@@H](CCCCN)C(=O)N[C@@H](Cc1ccccc1)C(=O)N[C@@H](Cc1ccc(O)cc1)C(=O)N[C@@H](CCCCN)C(=O)N[C@@H](CCC(N)=O)C(=O)N[C@H](C(=O)N[C@@H](CCSC)C(=O)N[C@@H](CCC(N)=O)C(=O)N[C@@H](Cc1ccccc1)C(=O)N[C@H](C(=O)NCC(=O)N[C@@H](CCC(N)=O)C(=O)NCC(=O)N[C@@H](Cc1c[nH]c2ccccc12)C(=O)N[C@H](C(=O)N[C@H](C(=O)N[C@@H](CC(=O)O)C(=O)N[C@@H](CCC(N)=O)C(=O)N[C@H](C(=O)N[C@@H](CCC(=O)O)C(=O)N[C@@H](CCCCN)C(=O)N[C@@H](Cc1c[nH]c2ccccc12)C(=O)N[C@@H](CC(C)C)C(=O)N[C@@H](CCCCN)C(=O)N[C@@H](CCCNC(=N)N)C(=O)N[C@@H](Cc1c[nH]cn1)C(=O)O)[C@@H](C)CC)[C@@H](C)CC)[C@@H](C)O)[C@@H](C)CC)[C@@H](C)CC)[C@@H](C)CC)C(C)C | Bacillus subtilis subsp. subtilis |  | ATCC 23857 | 10 h | 10.9 ± 0.1 µM
CC(C)c1ccc(Cn2ccc([C@H](C)[C@](O)(Cn3cnnn3)c3ccc(F)cc3F)n2)cc1 | Candidozyma auris | growth | 888 drug-resistant isolate | 24 h, 30 °C, ≥50% inhibition | 8 µg/mL
[O-][N+]1=C(c2ccccc2)C2=NCCN2c2ccccc21 | Cutibacterium acnes | microbial growth |  |  | 16 µg/mL
CN(Cc1cc(C2CC2)on1)C(=O)c1cccc(-c2ccc(F)cc2)c1 | Cryptococcus neoformans | microbial growth, broth dilution |  |  | 32 µg/mL
C[N+]1=C2C(c3ccc(Cl)cc3)=[N+]([O-])c3ccccc3N2CCC1 | Prevotella intermedia/nigrescens |  | ATCC 25611 |  | 16 µg/mL
CC[C@H](C)[C@H](NC(=O)[C@H](CCCN)NC(=O)[C@H](CC(N)=O)NC(=O)[C@H](Cc1c[nH]c2ccccc12)NC(=O)[C@H](Cc1ccccc1)NC(=O)[C@H](CCCN)NC(=O)[C@H](CCCNC(=N)N)NC(=O)[C@H](CC(C)C)NC(=O)[C@H](Cc1c[nH]c2ccccc12)NC(=O)[C@H](CCCN)NC(=O)[C@H](CCCNC(=N)N)NC(=O)[C@H](CC(C)C)NC(=O)CNC(C)=O)C(=O)N[C@@H](CCCN)C(=O)N[C@@H](CCCNC(=N)N)C(N)=O | Citrobacter freundii | bacterial growth, broth microdilution | multidrug-resistant |  | 3.12 µM
C[C@@H](c1ccn(Cc2ccc(I)cc2)n1)[C@](O)(Cn1cnnn1)c1ccc(F)cc1F | Candidozyma auris | microbial growth | D12 | 24 h, drug-resistant strain, clinical isolate | 0.125 µg/mL
O=C(NCc1nc(-c2ccc(Br)cc2)c[nH]1)Nc1ncc(Sc2ccccn2)s1 | Bifidobacterium breve | broth microdilution | ATCC 11863 | added: verapamil 50 µg/mL | > 128 µM
[O-][N+]1=C(c2ccc(Cl)cc2)C2=NCCCN2c2ccccc21 | Prevotella intermedia/nigrescens |  | ATCC 25611 |  | 1 µg/mL
CC(C)C[C@H](NC(=O)[C@H](CCCCN)NC(=O)[C@H](C)NC(=O)[C@H](CC(C)C)NC(=O)[C@H](CCCCN)NC(=O)[C@H](CCCCN)NC(=O)[C@H](C)NC(=O)[C@H](CC(C)C)NC(=O)[C@H](CCCCN)NC(=O)[C@H](C)NC(=O)[C@H](CC(C)C)NC(=O)[C@H](CCCCN)NC(=O)[C@H](Cc1c[nH]cn1)NC(=O)CNC(=O)CN)C(=O)N[C@@H](C)C(=O)N[C@@H](CCCCN)C(N)=O | Enterobacter aerogenes |  | ATCC 13048 | 18 to 20 h | > 32 µM
CN[C@@H]1[C@H](O)[C@H](NC)[C@H]2O[C@]3(O)[C@H](O[C@@H]2[C@H]1O)O[C@H](C)C[C@@]3(O)CNCc1ccc(F)cc1 | Streptococcus pneumoniae |  | R6 |  | 1.6 to 3.1 µg/mL
C=C(NC(=O)C(=C)NC(=O)c1csc(C2=NC3c4csc(n4)C4NC(=O)c5csc(n5)C(C(C)(O)C(C)O)NC(=O)C5CSC(=N5)C(=CC)NC(=O)C(C(C)O)NC(=O)c5csc(n5)C3(CC2)NC(=O)C(C)NC(=O)C(=C)NC(=O)C(=CC)NC(=O)C(C(C)CC)NC2C=Cc3c(C(C)O)cc(nc3C2O)C(=O)OC4C)n1)C(N)=O (stereo not drawn) | Bacillus sp. | broth microdilution | ATCC 27859 | 18 h, 37 °C | 0.11 µg/mL
CC1C(=NNC(=O)c2ccncc2)C(C)C(c2ccc(Br)cc2)OC1c1ccc(Br)cc1 (stereo not drawn) | Rhizopus |  |  | 72 to 96 h | 100 µg/mL
C[N+]1=C2C(c3ccc([N+](=O)[O-])cc3)=[N+]([O-])c3ccccc3N2CCC1 | Cutibacterium acnes | microbial growth |  |  | > 16 µg/mL
OB(O)c1cnn(-c2cc(Cl)ncn2)c1 | Citrobacter freundii | bacterial growth | AmpC-overproducing clinical isolate | cefotaxime alone | 2 µg/mL
CC1N=C(CCCCCCCCCCC2=CC(CCCCCCCCCCC3=NC(C)C(O)CC3)C3CCCN3C2)CCC1O (stereo not drawn) | Cryptococcus neoformans |  | ATCC 90113 |  | 1.25 µg/mL
C[C@@H](c1ccn(Cc2ccc(Cl)c(Cl)c2)n1)[C@](O)(Cn1cnnn1)c1ccc(F)cc1F | Candidozyma auris | growth | 888 drug-resistant isolate | 24 h, 30 °C, ≥50% inhibition | 16 µg/mL
CC[C@H](C)[C@@H]1NC(=O)CNC(=O)[C@H](CCCCN)NC(=O)[C@H](C)NC(=O)[C@H](CCC(=O)O)NC(=O)[C@H](Cc2ccccc2)NC(=O)[C@H](CO)NC(=O)[C@H](CC(C)C)NC(=O)[C@H](C(C)C)NC(=O)[C@H](CC(=O)O)NC(=O)[C@@H](NC(=O)[C@@H](NC(=O)[C@@H](N)C(C)C)[C@@H](C)O)CSSC[C@@H]2NC(=O)[C@H](CO)NC(=O)CNC(=O)CNC(=O)[C@H](CCCCN)NC(=O)[C@H](CCCCN)NC(=O)[C@H](CCCNC(=N)N)NC(=O)[C@H](CC(C)C)NC(=O)[C@H](C)NC(=O)[C@H]([C@@H](C)CC)NC(=O)[C@H](CSSC[C@@H](C(=O)N[C@@H](CCCNC(=N)N)C(=O)N[C@@H](CC(N)=O)C(=O)O)NC(=O)[C@H](C(C)C)NC(=O)[C@H](C)NC(=O)[C@H](C(C)C)NC(=O)CNC(=O)[C@H](CC(N)=O)NC(=O)[C@H](CCC(N)=O)NC2=O)NC(=O)[C@H](Cc2c[nH]cn2)NC(=O)[C@H](CC(C)C)NC(=O)[C@H](C)NC(=O)[C@H](C)NC(=O)[C@H](C)NC(=O)[C@H](CO)NC(=O)[C@H](Cc2c[nH]cn2)NC(=O)[C@H](CC(N)=O)NC(=O)[C@H](C(C)C)NC(=O)[C@H](C)NC1=O | Trichosporon beigelii | broth microdilution | KCTC 7707 | 28 °C | 25 µM

Excerpt of the above:
SMILES | organism | assay | system | setting | MIC
CC1C(=NNC(=O)c2ccncc2)C(C)C(c2ccc(Br)cc2)OC1c1ccc(Br)cc1 (stereo not drawn) | Rhizopus |  |  | 72 to 96 h | 100 µg/mL
C[N+]1=C2C(c3ccc([N+](=O)[O-])cc3)=[N+]([O-])c3ccccc3N2CCC1 | Cutibacterium acnes | microbial growth |  |  | > 16 µg/mL
OB(O)c1cnn(-c2cc(Cl)ncn2)c1 | Citrobacter freundii | bacterial growth | AmpC-overproducing clinical isolate | cefotaxime alone | 2 µg/mL
